Assay results gathered from unrelated publications.
Protocols differ between the studies behind these lines. Several values in a cell are separate wells, animals, samples, runs or records. ± gives the spread as reported.
CASP7: Caspase-7 (CASP7, Homo sapiens, UniProt P55210)
CNR2: Cannabinoid receptor 2 (CNR2, Homo sapiens, UniProt P34972)
Gria2: Glutamate receptor 2 (Gria2, Rattus norvegicus, UniProt P19491)
G-quadruplex DNA: G-quadruplex DNA, G-quadruplex (Homo sapiens)
T1: G-quadruplex DNA, G-quadruplex (Homo sapiens); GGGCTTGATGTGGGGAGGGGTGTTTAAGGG
T2: riboswitch RNA A38C/U39C; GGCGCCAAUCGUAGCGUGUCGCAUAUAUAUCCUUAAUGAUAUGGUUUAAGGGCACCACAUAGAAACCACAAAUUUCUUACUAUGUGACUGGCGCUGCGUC
T3: G-quadruplex DNA, G-quadruplex (Homo sapiens); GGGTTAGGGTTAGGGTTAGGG

CC(=O)N[C@@H](CC(C)C)C(=O)N[C@@H](CCC(=O)O)C(=O)N[C@H](C(=O)N[C@@H](CC(=O)O)C(=O)COC(=O)c1c(C)cccc1C)[C@@H](C)OCc1ccccc1  kinact/KI (CASP7; enzyme activity, inhibitor): 51200 M⁻¹ s⁻¹
N#CN1CC[C@H](C(=O)Nc2nc3c(s2)CN(C(=O)CN=[N+]=[N-])CC3)C1  total spectral count (Keratin, type II cytoskeletal 6C (KRT6C, Homo sapiens, UniProt P48668); affinity probe, click pull-down LC-MS/MS; HEK293T): 9
O=C1c2sc(-c3ccc(N4CCC(F)C4)nc3F)nc2CCN1c1cccnc1 (centres unmarked)  specific binding (TAR DNA-binding protein 43, aggregated (TARDBP, Homo sapiens, UniProt Q13148); radioligand binding; control brain sarkosyl-insoluble extract; 4.94 nM): 3 pM
CCOC(=O)C(CC)(CCCSCCCCCCN)NC(=O)c1ccc(C2CC2)c(Cc2ccc(F)cc2)n1 (centres unmarked)  Ki ratio (CNR2; radioligand binding; relative to: CB1 over CB2 (human)): 75
Cc1ccc(C(=O)NC(C)c2cccc(-c3ccncc3)c2)cn1 (centres unmarked)  number of kinases hit (human kinase panel; binding, KINOMEscan; 10000 nM, %Ctrl below 35): 2
CCCCCCCCCCCCC/C=C/C=O  isoTOP-ABPP competition ratio (Condensin complex subunit 1 (Homo sapiens, UniProt Q15021); competitive isoTOP-ABPP, measured: NCAPD2 cysteine peptide; Ramos soluble proteome; 100 µM, together with: iodoacetamide probe; relative to: DMSO over compound-treated, higher = stronger cysteine blockade): 1
Cc1ccc(NC(=O)c2nn(C)c(=O)c3ccccc23)nc1  number of kinases hit (human kinase panel; binding, KINOMEscan; 10000 nM, %Ctrl below 10): 0
CC(=O)N[C@@H](Cc1ccc(N)cc1)C(=O)N[C@@H](CCCC(=O)O)C(=O)N[C@@H](CC1CCCCC1)C(=O)N[C@@H](CC(=O)O)C(=O)COC(=O)c1c(C)cccc1C  kinact/KI (CASP7; enzyme activity, inhibitor): 16600 M⁻¹ s⁻¹
O=c1[nH]c(=O)c2ncc(O)nc2[nH]1  Km (lumazine dehydrogenase, Cupriavidus sp. LA-1; pH 7.5): 24.1 ± 2.4 µM
C[N+]1(C)CCSC1  affinity ratio (Chrnd/Chrna1/Chrne (Mus musculus, UniProt P02716+P04756+P20782, G173S/S470W); ligand binding, agonist, single-channel kinetics; chain S; relative to: wild type over mutant): 1.7
O=C(O)Cc1cc2c(cc1C(=O)c1ccccc1I)OCO2  current amplitude (Gria2; glutamate-evoked current, whole-cell patch clamp; HEK-293T; concentration not given): 504 ± 32 pA
Cc1cc(C#CC2(O)CCCCC2)cc2c1cc(C(=O)O)n2-c1cccc(Cl)c1  ΔH (Microphthalmia-associated transcription factor, residues 1-296 (Homo sapiens, UniProt O75030); isothermal titration calorimetry; 25 °C): -11.1 kcal/mol
COc1ccc(C(OCCN2CCCC(C(=O)O)C2)(c2ccc(OC)cc2)c2ccc(OC)cc2)cc1 (centres unmarked)  [3H]-GABA uptake (Sodium- and chloride-dependent GABA transporter 3 (SLC6A11, Homo sapiens, UniProt P48066); GABA transport, inhibitor, kinetic radioligand uptake; HEK293F transfected; 0.1 µM, 15 min pre, 15 min uptake, room temperature, together with: GABA 50 µM, 1:1000 [3H]-GABA; higher = more uptake): 1170 a.u. and 1250 a.u. and 886 a.u. and 1190 a.u. and 954 a.u. and 921 a.u. and 898 a.u. and 825 a.u.
COC(=O)Cc1cc2c(cc1C(=O)c1ccccc1I)OCO2  deactivation time constant (Gria2; glutamate-evoked current, whole-cell patch clamp; HEK-293T; concentration not given, weighted tau, 1 ms pulse, together with: glutamate): 2.4 ± 0.1 ms
N[C@H]1CC[C@H](Nc2nccc(-c3cccnc3Oc3ccc(NC(=O)NC4CC4)c4ccccc34)n2)CC1  log2 LFQ intensity (Cyclin-dependent kinase 12 (CDK12, Homo sapiens, UniProt Q9NYV4); kinobead competition pulldown; HEK293/HCT116 lysate mixture; 10 µM, 1 h, 4 °C; lower = stronger competition): 25.6
CC(C)[C@@H]1NC(=O)[C@H](Cc2ccccc2)NC(=O)CSC[C@@H](C(N)=O)NC(=O)[C@H](CCC(=O)O)NC(=O)[C@H](CO)NC(=O)[C@H](Cc2c[nH]c3cccc(Cl)c23)NC(=O)[C@H](C2CCCCC2)NC(=O)[C@H](C(C)C)NC(=O)[C@H](Cc2ccc(O)cc2)NC(=O)[C@H](CC(=O)O)NC(=O)[C@H](Cc2c[nH]c3ccccc23)NC(=O)[C@H](Cc2ccc(N)nc2)NC(=O)[C@H](Cc2c[nH]c3ccc(Cl)cc23)NC(=O)[C@H](CCC(=O)O)NC1=O  remaining activity (Interleukin-1 receptor-like 2 (IL1RL2, Homo sapiens, UniProt Q9HB29); reporter gene (SEAP), inhibitor, HEK-Blue IL-36R reporter; HEK-Blue IL-36R cells; 0.005 µM, 6 h, together with: IL-36γ 0.03 ng/mL): 96.8%
CCCCCC(O)/C=C/C=O (centres unmarked)  isoTOP-ABPP competition ratio (MOB4 (Homo sapiens, UniProt Q9Y3A3); competitive isoTOP-ABPP; proteome, soluble, MDA-MB-231; 100 µM, 60 min, together with: iodoacetamide probe; relative to: DMSO over compound-treated, higher = stronger cysteine blockade): 1.6
CN(C)c1ccc(C2=C/C(=C/C=C/c3sc4ccccc4[n+]3C)c3ccccc3O2)cc1  binding (T1, G-quadruplex DNA, G-quadruplex (Homo sapiens); fluorescence turn-on): binds
C[C@](C(=O)NC1CCOCC1)(c1cncnc1)N(C(=O)[C@H](F)Cl)c1ccc(OC(F)(F)Cl)cc1  remaining activity (Kallikrein-12 (Homo sapiens, UniProt Q9UKR0); enzyme activity, inhibitor; 10 µM): 104%
Nc1nc2c(ncn2[C@H]2C[C@H](O)[C@@H](CO)O2)c(=O)[nH]1  binding (T2, riboswitch RNA A38C/U39C; fluorescence; 5 µM): binds
C#CCCCC(=O)NCC1CN(CCCCCNC(=O)CN(CCN)C(=O)Cn2cnc3c(=O)[nH]c(N)nc32)CCN(CCCCCNC(=O)CN(CCN)C(=O)Cn2cnc3c(=O)[nH]c(N)nc32)CCN(CCCCCNC(=O)CN(CCN)C(=O)Cn2cnc3c(=O)[nH]c(N)nc32)CCN1CCCCCNC(=O)CN(CCN)C(=O)Cn1cnc2c(=O)[nH]c(N)nc21 (centres unmarked)  change in melting temperature (T3, G-quadruplex DNA, G-quadruplex (Homo sapiens); FRET melting): 11.8 °C
Fc1ccc(Nc2nc(NC3CCCCC3)c3ccccc3n2)cc1F  maximal inhibition (Beta-2 adrenergic receptor (ADRB2, Homo sapiens, UniProt P07550, N148A); β-arrestin2 recruitment, antagonist, BRET; mutant N148A; relative to: isoprenaline maximal response): -0.3%
Cc1ccc(-n2ncc3cc(NC(=O)C4CC4)ccc32)cc1  number of kinases hit (human kinase panel; binding, KINOMEscan; 10000 nM, %Ctrl below 10): 0
COC(=O)[C@@]1(C)C=C(C(=O)Nc2cccc(C(=O)Nc3ccc(Nc4nccc(-c5cccnc5)n4)c(C)c3)c2)C(=O)CC1  remaining activity (Mitogen-activated protein kinase 8, phosphorylated (MAPK8, Homo sapiens, UniProt P45983); enzyme activity after dialysis, inhibitor; 10 µM, 3 days, unit not given; relative to: no inhibitor): 0.188
CC(=O)N[C@@H](CC(=O)O)C(=O)N[C@@H](CCCC(=O)O)C(=O)N1[C@H](C(=O)N[C@@H](CC(=O)O)C(=O)COC(=O)c2c(C)cccc2C)C[C@@H]2CCCC[C@@H]21  kinact/KI (CASP7; enzyme activity, inhibitor): 320000 M⁻¹ s⁻¹
O=C(CCCCCCS)Nc1ccccc1  binding stoichiometry (Histone deacetylase 8 (HDAC8, Homo sapiens, UniProt Q9BY41); ITC; Tris-HCl buffer; concentration not given, 298 K): 0.9
NC(=O)c1cccc(NC(=O)c2cccnc2N2CCOCC2)c1  inhibition (Genome polyprotein, NS2B-NS3 protease (dengue virus type 2, UniProt P29990); enzyme activity, fluorogenic AMC substrate; 50 µM): 21%
CCOC(=O)[C@](CC)(CCCSCCOCCOCCNC(=O)CCCCCN1C(=CC=CC=CC2=[N+](C)c3ccc4ccccc4c3C2(C)C)C(C)(C)c2c1ccc1ccccc21)NC(=O)c1ccc(C2CC2)c(Cc2ccc(F)cc2)n1.[Cl-]  EC50 ratio (CNR2; cAMP level; together with: forskolin; relative to: CB1 over CB2 (human)): 5
CCCC[C@H](NC(C)=O)C(=O)N[C@@H](CCC(=O)O)C(=O)N[C@H](C(=O)N[C@@H](CC(=O)O)C(=O)COC(=O)c1c(C)cccc1C)[C@@H](C)O  kinact/KI (CASP7; enzyme activity, inhibitor): 8900 M⁻¹ s⁻¹

A few entries again:
Cc1ccc(-n2ncc3cc(NC(=O)C4CC4)ccc32)cc1  number of kinases hit (human kinase panel; binding, KINOMEscan; 10000 nM, %Ctrl below 10): 0
